Assay results gathered from unrelated publications.
Parts stem from different laboratories: compare values within a part only. Positions count from the first letter of the parent shown.

Block 1
Target: CCND2, cyclin fold, Cln2 fusion (human)
Technique: yeast growth competition, sequencing
Sample: yeast
Notes: weak parent motif
Baseline: not given
Reading: higher = stronger binding
Parent: MICAL3 docking peptide (human); LQLRRQLSFSEDS; partner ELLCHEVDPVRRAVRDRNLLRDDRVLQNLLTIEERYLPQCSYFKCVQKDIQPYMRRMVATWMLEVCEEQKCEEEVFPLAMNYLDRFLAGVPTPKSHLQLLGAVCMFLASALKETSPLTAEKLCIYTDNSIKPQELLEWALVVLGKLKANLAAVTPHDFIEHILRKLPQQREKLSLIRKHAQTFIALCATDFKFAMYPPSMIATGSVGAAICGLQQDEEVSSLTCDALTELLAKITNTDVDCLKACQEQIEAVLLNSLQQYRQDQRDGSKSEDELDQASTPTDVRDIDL
Under “normalised enrichment score”, `R4L` is recorded as -0.0841.
For `D12C`, “normalised enrichment score” read 0.0446.
`F9C`: “normalised enrichment score” 0.121.
Under “normalised enrichment score”, `R5T` is recorded as 0.127.
`L3A` — result for “normalised enrichment score”: 1.33.
Under “normalised enrichment score”, `D12W` is recorded as -0.0508.
`L3P` — result for “normalised enrichment score”: 0.45.
`L3V` — result for “normalised enrichment score”: 0.753.
For `L7W`, “normalised enrichment score” read 0.168.
For `L7S`, “normalised enrichment score” read -0.427.
Under “normalised enrichment score”, `D12Y` is recorded as 0.156.
For `L3S`, “normalised enrichment score” read 0.445.
`F9A` — result for “normalised enrichment score”: 0.0299.
`Q6E`: “normalised enrichment score” 0.651.
For `Q6W`, “normalised enrichment score” read -0.287.
`S8E` — result for “normalised enrichment score”: 0.16.
For `S10H`, “normalised enrichment score” read 0.0504.
For `F9Y`, “normalised enrichment score” read -0.0153.
For `R5N`, “normalised enrichment score” read 0.6.
`Q2H`: “normalised enrichment score” 0.0967.
`Q2A`: “normalised enrichment score” 0.0161.

Block 2
Target: ABI1, truncated, D143A, DHFR fusion (Arabidopsis thaliana)
Technique: DHFR PCA, deep sequencing
Sample: yeast
Notes: methotrexate growth selection, single substitutions
With: (+)-ABA 1.4 µM
Baseline: wild-type fitted maximum
Reading: higher = stronger binding
Parent: PYL1, truncated, DHFR fusion (Arabidopsis thaliana); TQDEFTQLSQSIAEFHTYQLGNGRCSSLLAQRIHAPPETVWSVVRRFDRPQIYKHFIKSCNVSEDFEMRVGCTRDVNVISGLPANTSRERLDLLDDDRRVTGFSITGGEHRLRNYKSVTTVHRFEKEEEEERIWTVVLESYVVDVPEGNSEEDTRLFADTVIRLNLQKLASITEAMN
`N165E`: “relative binding score” 18.1%.
For `V78A`, “relative binding score” read 2.28%.
`D65P`: “relative binding score” 67.6%.
`V121M` — result for “relative binding score”: 2.44%.
`E125K` — result for “relative binding score”: 59.6%.
Under “relative binding score”, `F5W` is recorded as 63.3%.
`Y141V`: “relative binding score” -1.55%.
`L29W`: “relative binding score” 1.76%.
`E174T`: “relative binding score” 16.5%.
`D65W` — result for “relative binding score”: 9.91%.
Under “relative binding score”, `T1K` is recorded as 53.7%.
`S87H`: “relative binding score” 25.1%.
`I12Y`: “relative binding score” 7.26%.
For `L166D`, “relative binding score” read 7.5%.
Under “relative binding score”, `K126P` is recorded as 88.1%.
`S63E` — result for “relative binding score”: 49.7%.
Under “relative binding score”, `D75M` is recorded as 69.4%.
`V118Y` — result for “relative binding score”: 0.473%.
`S27M` — result for “relative binding score”: 6.89%.
For `F47N`, “relative binding score” read 5.53%.
`N61Q`: “relative binding score” 71.7%.
`V43D` — result for “relative binding score”: -8.41%.
For `N85M`, “relative binding score” read 60.1%.

Block 3
Target: Interferon regulatory factor 5, full length, phosphomimetic (IRF5, Homo sapiens, UniProt Q13568-2, residues 1-514, S451D/S453D/S456D/S462D)
Technique: protein-binding microarray
Form: double-stranded DNA, one strand shown
Sample: in vitro
Tested at: 940 nM top
Notes: 60-bp whole probe
With: salmon DNA 0.4 mg/ml
Baseline: random background probes
Reading: higher = stronger binding
All sequences stand within: GCCTAGCAC … GTCTTGATTCGCTTGACGCTGCTG
`GACGATTTCAGTATCGGGACGTGCTAG`: “fitted relative affinity” 2.55 z-score.
Under “fitted relative affinity”, `GACGCTATCGGACTGGGGACGTGCTAG` is recorded as -0.23 z-score.
Under “fitted relative affinity”, `TTCTTGCGGAGTTTCTTGCAGTGCTAG` is recorded as 0.112 z-score.
Under “fitted relative affinity”, `TTAGATATCAGACTGGATTTGTGCTAG` is recorded as -0.341 z-score.
Under “fitted relative affinity”, `CTAGAACTGGGGTTTCGATTAGTGCTA` is recorded as 4.9 z-score.
For `GGCGGTATCGGACTGGGGACGTGCTAG`, “fitted relative affinity” read 2.73 z-score.
`GACGGACTCGGTATCGGGACGTGCTAG`: “fitted relative affinity” 1.17 z-score.
Under “fitted relative affinity”, `CTTAGAATAATTTTTTAGCTTGTGCTA` is recorded as -0.134 z-score.
For `TATTTTTTTCTAATTGAAATGTGCTAG`, “fitted relative affinity” read 0.32 z-score.
`TCATTTTCGTTTTTATTATTGTGCTAG` — result for “fitted relative affinity”: 4.19 z-score.
Under “fitted relative affinity”, `GACGGTACCCTTTTCCTGACGTGCTAG` is recorded as 0.315 z-score.
`GACGGTCTCCTTCTCGTGACGTGCTAG`: “fitted relative affinity” 0.373 z-score.
`TTAGGACGGCTTTTCCTTTAGTGCTAG`: “fitted relative affinity” -0.222 z-score.
Under “fitted relative affinity”, `TTAGGTTTCGATCTCGGTTAGTGCTAG` is recorded as 11.7 z-score.
`GACGGACAGGACTTTCGGGACGTGCTA` — result for “fitted relative affinity”: 0.711 z-score.
For `TCAATCATTGTTTTCAGACTGTGCTAG`, “fitted relative affinity” read 0.193 z-score.
For `AAGCAGTTACTCTAGAGGCCGTGCTAG`, “fitted relative affinity” read -0.65 z-score.
`GACGAAGTGAGTTTCGAGACGTGCTAG`: “fitted relative affinity” 3.52 z-score.
`GCCATTTTCCCTCCCTAATTGTGCTAG` — result for “fitted relative affinity”: 1.29 z-score.

Block 4
Target: RING finger protein unkempt homolog, zinc fingers 1-6, GST-SBP tag (UNK, Homo sapiens, UniProt Q9C0B0, residues 30-357)
Technique: RNA Bind-n-Seq
Form: RNA
Sample: in vitro
Tested at: not given
Notes: RNA with constant flanks, human and mouse sites, ends assumed
Baseline: input RNA pool
Reading: higher = stronger binding
Construct (chain): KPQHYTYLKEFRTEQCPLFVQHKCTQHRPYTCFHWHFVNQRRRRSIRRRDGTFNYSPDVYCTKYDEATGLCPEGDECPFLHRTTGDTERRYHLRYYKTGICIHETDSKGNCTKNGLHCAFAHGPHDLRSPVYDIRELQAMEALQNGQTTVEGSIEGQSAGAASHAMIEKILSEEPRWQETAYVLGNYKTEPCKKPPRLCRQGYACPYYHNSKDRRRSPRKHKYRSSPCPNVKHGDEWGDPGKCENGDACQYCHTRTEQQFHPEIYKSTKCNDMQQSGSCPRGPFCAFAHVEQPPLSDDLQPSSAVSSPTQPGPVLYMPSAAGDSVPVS
`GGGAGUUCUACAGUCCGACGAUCGACUUCCAGAAGGUGCCGAUGCAAACAGGCAUUUUGCCUGGCUGUGAGCCAUGCCACAAGAAGGUGUGUGCCCAUGGCACAUGCCAGCCCAGCAGCCAGGCAGGCUUCACCUGCGAGUGCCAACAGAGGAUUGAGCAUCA` gave a bound/input enrichment of 0.0458 ratio.
`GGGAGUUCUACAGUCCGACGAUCUCUCAUUGUCUCACACUCUGACAAGAGUGAGUUAUUAUUUUUUUCUUUUUUACAUUUUGUAUAGAGACAAAUUCAUUUAAACAAACUUAUUAUUAUUAUUAUUUUUUACAAAAUAUAUAUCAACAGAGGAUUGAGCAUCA` has a bound/input enrichment of 24.6 ratio.
`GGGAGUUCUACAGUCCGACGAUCUUUUUUCUUUUUUUCUUUUCUUUUCUUUUUCUUUUUUUUGAAGACUAAUGCAGGAAAGCGUUUUUAAAAAGCCCCUUUCUGUUUGUGAGAGAGUAACAAUUAAAAAAAAUAUUAUGGAGGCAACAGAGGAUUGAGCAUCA` gave a bound/input enrichment of 0.409 ratio.
For `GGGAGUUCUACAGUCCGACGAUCAAAACUGAUUUAGAUAAUUCUAUAGGAAUUAAAAAAAUGAAAACCUCAUGUAAAUUUAAGAUAGAUUCAAACAUAAGUCCGAAGAAGGAUAGCAAAGAAUUUACACAAAAAAAUAAGAAACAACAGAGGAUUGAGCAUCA`, the bound/input enrichment was 4.7 ratio.
`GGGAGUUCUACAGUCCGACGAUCUCCACACAACAGGUGAAGAACAAGCUCAUUGAGAACACGGAUGCAGCCUGCAAAUAUGGGGCCUUUGGGCUACCCACCACUGUUGCCCAUGUGGAUGGUAAAACCUACAUGUUAUUUGGGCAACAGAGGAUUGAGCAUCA` has a bound/input enrichment of 0.037 ratio.
For `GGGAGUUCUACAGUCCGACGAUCAUGAAUCAUGCCUGUAUGCUGUUUGUAGAAAAUUAUGGACAGAAAAUAAUUAAGAAGAAUUUAUGUCGAAACUUCAUGCUUCAUCUAGUCAGCAUGCAUGACUUUAAUCUUAUUAGCAUACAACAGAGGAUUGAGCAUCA`, the bound/input enrichment was 0.661 ratio.
`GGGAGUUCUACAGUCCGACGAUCGUUCGGAGUUUUGCUGUUCGGUGCUUAGAAAAAUAUUUAACAGAUGACAAACUUUCUCAGUACCUCAUUCAACUUGUACAGGUCUUAAAAUAUGAACAGUAUUUGGAUAACCUGCUUGUGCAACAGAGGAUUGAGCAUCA` gave a bound/input enrichment of 2.55 ratio.
For `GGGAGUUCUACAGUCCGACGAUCUUCCCUGGAGAGUUCAUGAAGAGCUGGAAUGACUGCCUCAACAAAGAAGGCUUUGACAAAAUAGAUAUCAGUGCAGUUGUGGCAUAUACCAUCGCUGUAAAGGAGGAUGGGGAGCUCAACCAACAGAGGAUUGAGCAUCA`, the bound/input enrichment was 0.711 ratio.

Repeated from above (block 2):
`Y141V`: “relative binding score” -1.55%.
For `V78A`, “relative binding score” read 2.28%.
Under “relative binding score”, `D75M` is recorded as 69.4%.
`S63E` — result for “relative binding score”: 49.7%.
`V118Y` — result for “relative binding score”: 0.473%.
`S27M` — result for “relative binding score”: 6.89%.
`N165E`: “relative binding score” 18.1%.
`N61Q`: “relative binding score” 71.7%.
Under “relative binding score”, `T1K` is recorded as 53.7%.
`I12Y`: “relative binding score” 7.26%.
For `N85M`, “relative binding score” read 60.1%.
